Measured values of several laboratories.
A part holds a random share of what one study measured. Positions count from the first letter of the parent shown.

Series 1 — technique: RNAcompete; molecule type: RNA; sample: in vitro; tested at: 20 nM; notes: 7-mer, probes averaged, single round; reference: mean of 7-mers; direction: higher = stronger binding; quantity: 7-mer Z-score
Target: PABPC1L2, full length, GST fusion (mouse, UniProt A0ABA7IW68)
Target sequence (chain): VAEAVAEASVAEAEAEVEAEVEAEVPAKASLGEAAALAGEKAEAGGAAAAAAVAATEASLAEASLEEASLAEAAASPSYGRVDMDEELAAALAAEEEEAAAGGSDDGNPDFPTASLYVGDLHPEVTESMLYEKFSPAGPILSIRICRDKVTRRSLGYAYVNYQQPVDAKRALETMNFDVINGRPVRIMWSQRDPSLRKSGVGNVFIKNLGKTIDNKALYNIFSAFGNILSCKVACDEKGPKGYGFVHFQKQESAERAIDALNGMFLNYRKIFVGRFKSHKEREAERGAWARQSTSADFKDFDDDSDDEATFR
UGACUAC: -0.0935
AAGUAAC: 0.198
GUUCGGC: -0.327
GAUUAGG: 0.0279
UCCUCAG: -0.342
AAGGCAC: 0.378
CGUAGAC: -0.191
CGCCGUG: -0.378
UUGCCGA: -0.197
AAGAUCC: 0.282
CCUGAGU: -0.28
GUAGUAG: -0.208
UGCCUGA: -0.133
CUCCGCC: -0.469
GUGGCGC: -0.0663
GCUUCCA: -0.347
UGGGUCU: -0.197
CUAGGUA: -0.128
CCGAUAA: 0.358
UGUAGCG: -0.079
CGAUCGU: -0.238
CAAUUCG: -0.15
CAGCGGA: -0.0645
UCCAGAC: -0.124

Series 2 — technique: DHFR PCA, deep sequencing; sample: yeast; added: (+)-ABA 2500 µM; reference: wild-type fitted maximum; direction: higher = stronger binding; quantity: relative binding score
Target: ABI1, truncated, D143A, DHFR fusion (Arabidopsis thaliana)
Notes: methotrexate growth selection, single substitutions
Starting sequence: PYL1, truncated, DHFR fusion (Arabidopsis thaliana); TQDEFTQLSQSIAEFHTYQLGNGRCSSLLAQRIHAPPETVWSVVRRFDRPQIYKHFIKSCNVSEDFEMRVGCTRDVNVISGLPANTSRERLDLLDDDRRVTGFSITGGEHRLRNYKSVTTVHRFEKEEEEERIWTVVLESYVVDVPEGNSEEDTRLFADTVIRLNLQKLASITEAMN; partner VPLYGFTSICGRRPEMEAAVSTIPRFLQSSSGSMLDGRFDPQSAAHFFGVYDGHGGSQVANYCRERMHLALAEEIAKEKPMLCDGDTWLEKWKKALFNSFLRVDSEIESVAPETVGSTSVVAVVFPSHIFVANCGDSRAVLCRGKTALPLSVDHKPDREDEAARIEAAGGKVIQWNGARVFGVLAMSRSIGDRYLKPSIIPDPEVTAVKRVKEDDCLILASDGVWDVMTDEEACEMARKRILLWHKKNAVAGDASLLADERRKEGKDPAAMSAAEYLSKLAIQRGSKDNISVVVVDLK
N177S: 89.1%
N77V: 95.5%
I79S: 97.7%
R90Q: 97.5%
G81F: 60.1%
T106F: 106%
T135V: 87.3%
S104N: 81.6%
V145R: 87.6%
Y141P: -4.89%
D3N: 86.6%
L29Q: 94.5%
R24V: 99.6%
A158K: -9.31%
V121T: 83.3%
F66E: 97.9%
V161G: -6.27%
T73G: 90.3%
T119V: 99.1%
E131Y: 99%
E89V: 10.2%
R74I: 8.02%

Series 3 — Molecule: B1 (TRIM72 RING domain); technique: yeast two-hybrid; sample: yeast; notes: mostly zero background; reference: not given; direction: higher = stronger interaction; quantity: lacZ reporter activity
B1: TRIM72 RING domain (UniProt Q6ZMU5); chain APGLLHQELSCPLCLQLFDAPVTAECGHSFCRACLGRVAGEPAADGTVLCPCCQAPTRPQALST
UBE2Q1 UBC core domain (UniProt Q7Z7E8): 0
UBE2D1 UBC core domain (UniProt P51668): 0
UBE2O UBC core domain (UniProt Q9C0C9): 0
UBE2Z UBC core domain (UniProt Q9H832): 0
BIRC6 UBC core domain (UniProt Q9NR09): 0
UBE2G1 UBC core domain (UniProt P62253): 0
UBE2C UBC core domain (UniProt O00762): 0
UBE2R2 UBC core domain (UniProt Q712K3): 0
UBE2J1 UBC core domain (UniProt Q9Y385): 0
UBE2E3 UBC core domain (UniProt Q969T4): 0
UBE2T UBC core domain (UniProt Q9NPD8): 0
UBE2I UBC core domain (UniProt P63279): 0
UBE2B UBC core domain (UniProt P63146): 0
UBE2M UBC core domain (UniProt P61081): 0
UBE2J2 UBC core domain (UniProt Q8N2K1): 0
UBE2S UBC core domain (UniProt Q16763): 0

Series 4 — Molecule: B2 (IAA7); technique: two-hybrid; direction: higher = firmer interaction; quantity: positive tests
B2: IAA7 (Arabidopsis thaliana, UniProt Q38825); chain MIGQLMNLKATELCLGLPGGAEAVESPAKSAVGSKRGFSETVDLMLNLQSNKEGSVDLKNVSAVPKEKTTLKDPSKPPAKAQVVGWPPVRNYRKNMMTQQKTSSGAEEASSEKAGNFGGGAAGAGLVKVSMDGAPYLRKVDLKMYKSYQDLSDALAKMFSSFTMGNYGAQGMIDFMNESKLMNLLNSSEYVPSYEDKDGDWMLVGDVPWEMFVESCKRLRIMKGSEAVGLAPRAMEKYCKNRS
ARF19 948-1086 (Arabidopsis thaliana, UniProt Q8RYC8); reference: out of 4 tests: 4
IAA12 (Arabidopsis thaliana, UniProt Q38830); reference: out of 4 tests: 4
ARF8 699-811 (Arabidopsis thaliana, UniProt Q9FGV1); reference: out of 2 tests: 2
ARF20 484-590 (Arabidopsis thaliana, UniProt Q9C7I9); reference: out of 4 tests: 0
IAA33 (Arabidopsis thaliana, UniProt Q9FKM7); reference: out of 4 tests: 3

Series 5 — target: CREB3, bZIP domain (human); technique: DHFR protein complementation; sample: yeast; reference: wild-type JUN-FOS pair; direction: higher = stronger binding; quantity: binding fitness
Notes: single substitutions, most at no-binding floor
Starting sequence: JUN, bZIP domain (human); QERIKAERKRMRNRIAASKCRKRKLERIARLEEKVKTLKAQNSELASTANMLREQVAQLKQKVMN; partner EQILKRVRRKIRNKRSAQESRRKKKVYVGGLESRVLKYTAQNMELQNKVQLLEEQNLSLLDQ
L52P: -1.52 natural log
V56F: -1.53 natural log
R53A: -1.47 natural log
L52M: -1.48 natural log
K34N: -1.49 natural log
V56M: -1.47 natural log
A29M: -1.58 natural log
V35D: -1.5 natural log
Q58H: -1.56 natural log
Q41I: -1.38 natural log
A49R: -1.39 natural log
A40G: -1.47 natural log
K36E: -1.52 natural log
E33T: -1.29 natural log
A29S: -1.35 natural log
K39W: -1.48 natural log
E44P: -1.53 natural log
R30C: -1.59 natural log
K36F: -1.47 natural log
V56S: -1.57 natural log
N42G: -1.5 natural log
K34Y: -1.48 natural log
K39N: -1.46 natural log
E33C: -1.41 natural log
L38H: -1.49 natural log
